Measured values pooled from the literature.
Numbered parts are unrelated; each lists some results of a single study.

Series 1
Target: Ras GTPase-activating protein-binding protein 1, RRM domain (G3BP1, Homo sapiens, UniProt Q13283)
UniProt Q13283, sequence (whole entry, looked up): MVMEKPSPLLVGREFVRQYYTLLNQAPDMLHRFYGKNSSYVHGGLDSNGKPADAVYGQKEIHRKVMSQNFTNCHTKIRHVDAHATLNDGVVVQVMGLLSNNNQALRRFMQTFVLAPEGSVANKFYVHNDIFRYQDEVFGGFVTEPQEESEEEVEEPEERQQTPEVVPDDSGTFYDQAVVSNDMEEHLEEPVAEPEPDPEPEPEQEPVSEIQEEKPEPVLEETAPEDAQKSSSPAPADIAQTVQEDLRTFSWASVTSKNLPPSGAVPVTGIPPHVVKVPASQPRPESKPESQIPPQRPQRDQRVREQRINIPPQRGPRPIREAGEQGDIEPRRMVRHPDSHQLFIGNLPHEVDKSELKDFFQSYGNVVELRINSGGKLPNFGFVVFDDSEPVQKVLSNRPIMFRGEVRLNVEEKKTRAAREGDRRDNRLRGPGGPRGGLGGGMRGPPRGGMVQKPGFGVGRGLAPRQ
Technique: RNA Bind-n-Seq
Molecule type: RNA
Medium: in vitro
Concentration: 1 µM
Setting: whole 134-nt RNA, ends assumed
Added: 150 mM KCl
Relative to: input library
Direction: higher = stronger binding
Measurement: log2 enrichment
All sequences stand within: GGGAGUUCUACAGUCCGACGAUC … UGGAAUUCUCGGGUGUCAAGG
CACAGACAACACGCACCCACACAGACACAGAGGGAAGGGGUUGGGAUGGAAACAGGGUGCACAGCAGGGCGGGGUAGGACCCCAGCCCCU: -0.124
CUCAAGUCCUGUGCUACACAUCGUAUGUACCGAAUCGGGCCGGCCGGGGCCGGGAAAGUAUUAUGUUACGCCGUUCGGAUCUGCACUUCC: -0.451
AGUCCUGUGCUACACAUCGUAUGUACCGAAUCGGGGCCCCGGCCCCGGGGCCCCGGGGAAAGUAUUAUGUUACGCCGUUCGGAUCUGCAC: -1.03
UGGGAGGUGGAUUUUGUUUAUUUUUUUAGCUCAUUUCCAGGGGUGGGAAUUUUUUUUUAAUCUGUGUCAUGAAUAAAGUUGUUUUUGAAA: 2.17
AAGUCCUGUGCUACACAUCGUAUGUACCGAAUCGGGUUUUGGUUUUGGUUUUGGGGAAAGUAUUAUGUUACGCCGUUCGGAUCUGCACUU: -0.331
AAGUCCUGUGCUACACAUCGUAUGUACCGAAUCAAACCCCCAAACCCAAAUUUAAAAAAGUAUUAUGUUACGCCGUUCGGAUCUGCACUU: -0.0269
UCCUGUGCUACACAUCGUAUGUACCGAAUCGGGAAAAAAAGGGAAAGGGUUUUUUUGGGAAAGUAUUAUGUUACGCCGUUCGGAUCUGCA: 0.00593
CCUGUGCUACACAUCGUAUGUACCGAAUCGGGGAAAAAAGGAAAAAAGGGGAAAAAAGGGGAAAGUAUUAUGUUACGCCGUUCGGAUCUG: -0.121
CCUCAGUGUCAUUUAUGAAAAGAGGGGACCAGAAGCCAAAGACUUAGUAUAUUUUCUUUUCCUCUGUCCCUUCCCCCAUAAGCCUCCAUU: -0.209
UGCUUCAUCGCCUUGUGCUCCUGCCCCUGGGAGCUGUGGAUCCCAGAUCCAGAUGACAGCCCACCUUGCUGGCAGGAUGCGCCAAUCCCC: -0.396
UUAAGUGUAUUGGAGCCCCAAGUUCUCAAUUAUUUGAGCCUCCGGGCGACAGAGCAAGAAAAGGUGAGUGGAUAGCGCAGGCAUAUUGGU: -0.162
UCCUGUGCUACACAUCGUAUGUACCGAAUCGGGAAAGGGAAAAAAAGGGAAAAAAAGGGAAAGUAUUAUGUUACGCCGUUCGGAUCUGCA: 0.116
GUCCUGUGCUACACAUCGUAUGUACCGAAUCAAACCCCCAAAUUUAAACCCCCCCAAAAAAGUAUUAUGUUACGCCGUUCGGAUCUGCAC: -0.182
UGGGAGGUGGAUUUUGUUUAUUUUUUUAGCUCAUUUCCAGGGGUGGGAAUUUUUUUUUAAUAUGUGUCAUGCAUAAAGUUGUUUUUGAAA: 1.7

Series 2
Target: PABPC1L2, full length, GST fusion (mouse, UniProt A0ABA7IW68)
Technique: RNAcompete
Molecule type: RNA
Medium: in vitro
Concentration: 20 nM
Setting: 7-mer, probes averaged, single round
Relative to: mean of 7-mers
Direction: higher = stronger binding
Measurement: 7-mer Z-score
Construct (chain): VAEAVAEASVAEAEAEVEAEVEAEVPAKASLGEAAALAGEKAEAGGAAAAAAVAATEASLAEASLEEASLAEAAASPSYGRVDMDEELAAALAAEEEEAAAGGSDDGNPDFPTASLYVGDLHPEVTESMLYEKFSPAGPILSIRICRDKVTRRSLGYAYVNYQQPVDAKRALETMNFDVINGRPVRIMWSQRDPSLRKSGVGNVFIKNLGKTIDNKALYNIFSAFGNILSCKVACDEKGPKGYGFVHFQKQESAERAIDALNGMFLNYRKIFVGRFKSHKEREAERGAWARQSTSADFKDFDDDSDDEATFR
GUGUGAU: -0.211
GUACAUU: -0.122
GAAGGAA: 0.166
CUGCGGC: -0.161
AAAUGUU: 0.568
UAGAACU: 0.0877
UGGGGCG: 0.369
CGAUGUA: -0.101
CAGUCUU: -0.364
GCAAUCU: -0.0464
CAAGCCC: -0.327
AAAGAUA: 2.87
GUGAAGG: 0.153
CUCUGUU: -0.412
GGCCAUG: -0.0953
UACAACA: 0.303
CUUAUUU: -0.318
AUAAACC: 1.01
CAACCUU: -0.157
CGCAAGC: -0.38
GACCCCC: -0.494
AAUAGUU: 0.075
GCUCCAC: -0.255
UGUAUAG: -0.197
CCCGGCC: -0.443

Series 3
Target: Prothrombin, mature alpha-thrombin (F2, Homo sapiens, UniProt P00734)
Technique: aptamer microarray, sandwich
Molecule type: DNA with 2'F-ANA
Medium: in vitro
Concentration: 200 nM
Setting: whole 15-mer aptamer, many near background
Added: Cy3 exosite-II aptamer, 400 nM
Direction: higher = stronger binding
Measurement: mean fluorescence intensity
Sequence: GGTTGGTGTGGTTGG
2'F-ANA at 1 2 5 6 9 11 13 14: 55.5 a.u.
2'F-ANA at 2 3 4 5 6 8 10 12 13 15: 47.3 a.u.
2'F-ANA at 5 6 11 12 14: 56.7 a.u.
2'F-ANA at 6 8 10 11 12: 181 a.u.
2'F-ANA at 1 3 6 7 9 10 13 14 15: 64.5 a.u.
2'F-ANA at 4 5 7 12 14: 71.6 a.u.
2'F-ANA at 2 3 8 10 11 12 14: 314 a.u.
2'F-ANA at 1 2 3 6 8 9 12 13: 326 a.u.
2'F-ANA at 1 2 4 5 7 9 10: 46.4 a.u.
2'F-ANA at 3 4 6 7 8 14: 335 a.u.
2'F-ANA at 3 4 6 9 10 13 14 15: 164 a.u.
2'F-ANA at 3 5 6 12 15: 249 a.u.
2'F-ANA at 6 7 10 11 12 13: 184 a.u.
2'F-ANA at 1 2 3 6 7 9 11 12: 282 a.u.
2'F-ANA at 3 5 8 10 12 13 15: 61.8 a.u.
2'F-ANA at 1 2 4 7 8 10 15: 50 a.u.
2'F-ANA at 1 3 4 6 9 10 11 13 15: 63.7 a.u.
2'F-ANA at 1 4 5 6 10 12 13 15: 45 a.u.
2'F-ANA at 2 3 7 8 9 14 15: 538 a.u.
2'F-ANA at 1 4 5 9 10 12 14 15: 44.7 a.u.
2'F-ANA at 1 3 4 5 12 13 14: 43.3 a.u.
2'F-ANA at 1 4 5 9 11 12 13 15: 77.9 a.u.
2'F-ANA at 1 2 4 6 7 8 9 12 13 14 15: 59.3 a.u.
2'F-ANA at 4 8 9 12 15: 625 a.u.
2'F-ANA at 1 5 8 9 11 13 14 15: 47.7 a.u.

Series 4
Target: Interferon regulatory factor 3, full length, phosphomimetic (IRF3, Homo sapiens, UniProt Q14653, residues 1-427, S386D/S396D/S398D/S402D/T404D/S405D)
UniProt Q14653, sequence (whole entry, unmodified, looked up): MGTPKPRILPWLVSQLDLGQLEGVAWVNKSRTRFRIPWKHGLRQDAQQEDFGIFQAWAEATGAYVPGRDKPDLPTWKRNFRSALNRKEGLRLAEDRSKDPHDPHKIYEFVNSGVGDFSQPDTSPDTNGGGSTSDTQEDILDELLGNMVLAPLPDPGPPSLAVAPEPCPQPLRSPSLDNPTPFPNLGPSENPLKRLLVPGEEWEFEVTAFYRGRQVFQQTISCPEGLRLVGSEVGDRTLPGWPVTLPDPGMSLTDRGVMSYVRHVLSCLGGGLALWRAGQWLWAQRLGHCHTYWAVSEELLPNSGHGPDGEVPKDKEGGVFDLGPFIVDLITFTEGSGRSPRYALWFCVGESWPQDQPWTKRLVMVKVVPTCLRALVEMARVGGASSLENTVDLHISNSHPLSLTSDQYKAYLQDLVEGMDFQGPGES
Technique: protein-binding microarray
Molecule type: double-stranded DNA, one strand shown
Medium: in vitro
Concentration: 2540 nM top
Setting: 60-bp whole probe
Added: salmon DNA 0.4 mg/ml
Relative to: random background probes
Direction: higher = stronger binding
Measurement: fitted relative affinity
All sequences stand within: GCCTAGCAC … GTCTTGATTCGCTTGACGCTGCTG
TTAGGTCTTCTTCTCCTTTAGTGCTAG: 0.864 z-score
GGGCACGTTGTTTAACTTCTGTGCTAG: -0.894 z-score
TTTACTTTCTGAATGCCCTCGTGCTAG: 5 z-score
TTAGGTTTCTTTTCCCTTTAGTGCTAG: 5.86 z-score
TTAGGACTGGGGACTGGGATAGTGCTA: -0.971 z-score
GACGTTATCGGTCTCGGGACGTGCTAG: 2.12 z-score
GACGAACTGAGTTTCGACACGTGCTAG: 1.22 z-score
TCAGGTCTCCTTCTCCTTTAGTGCTAG: 4.44 z-score
TTAGGTTTTGACTATCGGTTAGTGCTA: 0.172 z-score
GACGGTATCGGGTGTCGGGACGTGCTA: 1.1 z-score
TTAGAACTTAGTTTCGATTAGTGCTAG: 4.19 z-score
GACGGTATCGACTATCGGTACGTGCTA: 0.825 z-score
GTAGGTTTCGACTTTCGGTTAGTGCTA: 4.01 z-score
GACGGACTGCTACTGGTGACGTGCTAG: -0.503 z-score
GACGGTATCGGTTTCGGGATGTGCTAG: 6.65 z-score
TCATTTTCCTTATTGCTTACTGTGCTA: 6.71 z-score
GACGATTTGAGTCTCGAGACGTGCTAG: 0.142 z-score
TTAGGCCTGGGTCTCGGTTAGTGCTAG: -1.19 z-score
TTAGGTTTCGGACTGGGTTGGTGCTAG: 4.03 z-score
TACGATTTCAGTATCGAGACGTGCTAG: 1.98 z-score
CCATTTTTCTAGTCCAGACTGTGCTAG: 1.54 z-score
TCATTTTTACCTGTGGTACTGTGCTAG: 1.37 z-score
TCAATTTTGGTTTTCATACTGTGCTAG: 3.8 z-score

Series 5
Target: Histone acetyltransferase KAT6A, winged helix 1, GST fusion (KAT6A, Homo sapiens, UniProt Q92794, residues 1-85)
Technique: protein binding microarray
Molecule type: double-stranded DNA, one strand shown
Medium: in vitro
Concentration: not given
Setting: 8-mer, flanks averaged, mean of 2 arrays, mostly near background
Relative to: not given
Direction: higher = stronger binding
Measurement: E-score
Target sequence (chain): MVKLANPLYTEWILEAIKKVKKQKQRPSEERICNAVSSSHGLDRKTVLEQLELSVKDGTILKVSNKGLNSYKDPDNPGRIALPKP
TACGTAGA: -0.0614
GTCAGGCA: -0.0967
CAGTGTGA: -0.236
CGAGGACG: 0.107
ATCGAAAA: -0.0821
ACTCGTTG: -0.235
GAGAACCC: -0.136
CGCCCGCC: 0.436
CAACATGA: 0.0365
AAATGTGC: 0.0675
ATAAAGTA: -0.199
GAGTGAGA: -0.0729
CCCATCTA: 0.0105
CGCTTGGA: 0.026
ATTGGTCG: -0.0987
GGTTTTAA: 0.0473

For quick reference, copied from above (series 5):
GAGAACCC: -0.136
ATTGGTCG: -0.0987
ACTCGTTG: -0.235
ATCGAAAA: -0.0821
TACGTAGA: -0.0614
ATAAAGTA: -0.199
GTCAGGCA: -0.0967
GGTTTTAA: 0.0473
CAGTGTGA: -0.236
CGCCCGCC: 0.436
CGCTTGGA: 0.026
CGAGGACG: 0.107
CCCATCTA: 0.0105
CAACATGA: 0.0365
AAATGTGC: 0.0675
GAGTGAGA: -0.0729
